Results from different studies.
Every numbered part comes from another study and shows a few of its results, in no order. Several values in a cell are separate wells, animals, samples, runs or records.
UniProt Q7L7X3, sequence (whole entry, looked up): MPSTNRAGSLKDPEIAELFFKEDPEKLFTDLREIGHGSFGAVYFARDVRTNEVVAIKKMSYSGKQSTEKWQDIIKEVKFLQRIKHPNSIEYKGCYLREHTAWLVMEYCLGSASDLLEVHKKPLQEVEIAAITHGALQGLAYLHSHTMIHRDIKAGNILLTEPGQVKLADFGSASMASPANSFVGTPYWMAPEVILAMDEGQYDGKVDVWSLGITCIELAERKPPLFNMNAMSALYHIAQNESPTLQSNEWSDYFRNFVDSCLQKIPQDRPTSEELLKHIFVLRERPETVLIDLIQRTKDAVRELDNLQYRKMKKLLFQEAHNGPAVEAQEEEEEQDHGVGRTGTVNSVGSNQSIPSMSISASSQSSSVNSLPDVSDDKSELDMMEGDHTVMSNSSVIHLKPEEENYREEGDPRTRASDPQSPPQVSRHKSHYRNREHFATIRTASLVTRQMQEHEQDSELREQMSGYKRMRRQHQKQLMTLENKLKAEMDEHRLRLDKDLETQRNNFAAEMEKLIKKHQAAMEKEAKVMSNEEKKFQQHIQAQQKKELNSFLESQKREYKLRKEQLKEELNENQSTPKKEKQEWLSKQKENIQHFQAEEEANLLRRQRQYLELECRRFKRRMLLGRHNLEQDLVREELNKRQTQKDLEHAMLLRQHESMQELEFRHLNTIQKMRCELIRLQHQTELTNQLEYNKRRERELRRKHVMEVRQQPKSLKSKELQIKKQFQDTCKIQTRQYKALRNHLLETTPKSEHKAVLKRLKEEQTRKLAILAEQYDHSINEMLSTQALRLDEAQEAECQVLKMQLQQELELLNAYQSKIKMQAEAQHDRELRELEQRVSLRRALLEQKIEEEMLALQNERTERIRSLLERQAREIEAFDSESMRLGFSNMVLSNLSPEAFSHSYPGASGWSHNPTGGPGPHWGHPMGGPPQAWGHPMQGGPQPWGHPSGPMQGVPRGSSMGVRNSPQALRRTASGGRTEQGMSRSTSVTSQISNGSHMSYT
UniProt P22455, sequence (whole entry, looked up): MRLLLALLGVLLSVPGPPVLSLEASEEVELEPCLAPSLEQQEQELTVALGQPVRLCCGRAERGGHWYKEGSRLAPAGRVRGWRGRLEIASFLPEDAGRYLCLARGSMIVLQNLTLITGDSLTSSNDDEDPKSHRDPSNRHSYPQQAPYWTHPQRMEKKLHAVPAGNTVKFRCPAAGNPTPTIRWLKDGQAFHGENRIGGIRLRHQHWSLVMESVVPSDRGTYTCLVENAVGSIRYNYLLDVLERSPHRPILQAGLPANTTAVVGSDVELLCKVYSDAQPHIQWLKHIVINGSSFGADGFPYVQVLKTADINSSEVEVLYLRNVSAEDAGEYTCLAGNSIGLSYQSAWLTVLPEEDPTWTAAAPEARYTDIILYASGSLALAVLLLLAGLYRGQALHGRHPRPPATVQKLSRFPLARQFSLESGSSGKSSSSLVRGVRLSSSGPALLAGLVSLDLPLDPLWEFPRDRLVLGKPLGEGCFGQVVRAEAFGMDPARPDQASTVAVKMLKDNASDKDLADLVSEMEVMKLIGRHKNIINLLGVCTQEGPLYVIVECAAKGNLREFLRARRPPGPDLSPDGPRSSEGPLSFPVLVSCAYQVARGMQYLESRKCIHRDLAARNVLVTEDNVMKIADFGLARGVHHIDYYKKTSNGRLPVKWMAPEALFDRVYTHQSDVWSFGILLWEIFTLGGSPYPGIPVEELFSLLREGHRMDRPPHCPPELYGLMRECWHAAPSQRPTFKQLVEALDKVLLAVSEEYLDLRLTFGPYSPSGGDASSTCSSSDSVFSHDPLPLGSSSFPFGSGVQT
UniProt P48729, sequence (whole entry, looked up): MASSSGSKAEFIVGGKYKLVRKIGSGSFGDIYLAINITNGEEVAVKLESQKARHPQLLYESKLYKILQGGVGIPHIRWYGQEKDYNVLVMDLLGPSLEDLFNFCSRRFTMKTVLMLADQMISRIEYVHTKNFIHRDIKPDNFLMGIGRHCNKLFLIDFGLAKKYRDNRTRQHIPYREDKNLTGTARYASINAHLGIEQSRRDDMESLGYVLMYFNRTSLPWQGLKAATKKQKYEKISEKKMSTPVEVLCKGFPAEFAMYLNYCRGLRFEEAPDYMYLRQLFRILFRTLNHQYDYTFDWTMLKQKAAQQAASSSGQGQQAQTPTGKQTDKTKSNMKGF
UniProt P10721, sequence (whole entry, unmodified, looked up): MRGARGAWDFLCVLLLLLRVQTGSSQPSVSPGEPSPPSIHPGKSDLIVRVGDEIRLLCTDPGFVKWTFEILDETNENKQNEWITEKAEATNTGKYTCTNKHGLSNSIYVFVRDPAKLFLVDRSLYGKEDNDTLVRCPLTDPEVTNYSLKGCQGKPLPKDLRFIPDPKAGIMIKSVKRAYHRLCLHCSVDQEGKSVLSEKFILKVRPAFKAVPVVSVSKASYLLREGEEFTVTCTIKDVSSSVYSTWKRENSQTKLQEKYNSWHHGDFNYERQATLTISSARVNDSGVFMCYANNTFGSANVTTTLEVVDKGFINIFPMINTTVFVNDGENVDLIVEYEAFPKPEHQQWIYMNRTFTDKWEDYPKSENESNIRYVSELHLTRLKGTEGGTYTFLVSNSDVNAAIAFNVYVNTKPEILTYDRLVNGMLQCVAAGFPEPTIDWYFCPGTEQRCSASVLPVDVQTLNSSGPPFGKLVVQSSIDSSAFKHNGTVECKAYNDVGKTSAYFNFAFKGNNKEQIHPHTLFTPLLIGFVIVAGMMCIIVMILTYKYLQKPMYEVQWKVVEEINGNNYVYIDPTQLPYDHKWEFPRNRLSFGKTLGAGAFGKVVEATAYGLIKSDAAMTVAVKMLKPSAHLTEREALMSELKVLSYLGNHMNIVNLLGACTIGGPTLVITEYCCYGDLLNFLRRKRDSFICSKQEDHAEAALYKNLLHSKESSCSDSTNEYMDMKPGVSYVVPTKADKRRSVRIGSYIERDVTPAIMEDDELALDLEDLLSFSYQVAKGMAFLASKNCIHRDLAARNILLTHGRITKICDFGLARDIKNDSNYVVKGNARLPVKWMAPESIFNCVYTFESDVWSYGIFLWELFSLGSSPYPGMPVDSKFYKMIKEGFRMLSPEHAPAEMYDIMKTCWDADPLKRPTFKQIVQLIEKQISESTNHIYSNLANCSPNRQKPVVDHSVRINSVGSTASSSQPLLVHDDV
UniProt O60331, sequence (whole entry, looked up): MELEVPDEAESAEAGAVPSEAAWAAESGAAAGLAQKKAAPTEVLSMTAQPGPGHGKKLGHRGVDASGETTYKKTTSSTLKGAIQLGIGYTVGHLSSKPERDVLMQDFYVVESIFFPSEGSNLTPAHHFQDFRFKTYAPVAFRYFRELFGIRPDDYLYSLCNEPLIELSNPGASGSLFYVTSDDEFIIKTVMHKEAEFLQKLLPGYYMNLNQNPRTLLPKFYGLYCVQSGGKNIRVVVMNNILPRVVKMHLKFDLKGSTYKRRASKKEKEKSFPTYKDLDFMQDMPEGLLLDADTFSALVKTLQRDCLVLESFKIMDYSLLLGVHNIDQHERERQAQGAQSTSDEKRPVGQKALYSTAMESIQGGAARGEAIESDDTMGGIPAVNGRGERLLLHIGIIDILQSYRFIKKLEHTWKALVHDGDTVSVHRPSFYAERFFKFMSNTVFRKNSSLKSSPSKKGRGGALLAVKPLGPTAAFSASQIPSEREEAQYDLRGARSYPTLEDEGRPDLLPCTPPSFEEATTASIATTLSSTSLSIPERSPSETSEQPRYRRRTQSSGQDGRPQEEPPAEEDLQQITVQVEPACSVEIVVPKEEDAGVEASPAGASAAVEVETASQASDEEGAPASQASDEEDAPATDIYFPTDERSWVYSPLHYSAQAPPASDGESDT
UniProt Q9UK32, sequence (whole entry, looked up): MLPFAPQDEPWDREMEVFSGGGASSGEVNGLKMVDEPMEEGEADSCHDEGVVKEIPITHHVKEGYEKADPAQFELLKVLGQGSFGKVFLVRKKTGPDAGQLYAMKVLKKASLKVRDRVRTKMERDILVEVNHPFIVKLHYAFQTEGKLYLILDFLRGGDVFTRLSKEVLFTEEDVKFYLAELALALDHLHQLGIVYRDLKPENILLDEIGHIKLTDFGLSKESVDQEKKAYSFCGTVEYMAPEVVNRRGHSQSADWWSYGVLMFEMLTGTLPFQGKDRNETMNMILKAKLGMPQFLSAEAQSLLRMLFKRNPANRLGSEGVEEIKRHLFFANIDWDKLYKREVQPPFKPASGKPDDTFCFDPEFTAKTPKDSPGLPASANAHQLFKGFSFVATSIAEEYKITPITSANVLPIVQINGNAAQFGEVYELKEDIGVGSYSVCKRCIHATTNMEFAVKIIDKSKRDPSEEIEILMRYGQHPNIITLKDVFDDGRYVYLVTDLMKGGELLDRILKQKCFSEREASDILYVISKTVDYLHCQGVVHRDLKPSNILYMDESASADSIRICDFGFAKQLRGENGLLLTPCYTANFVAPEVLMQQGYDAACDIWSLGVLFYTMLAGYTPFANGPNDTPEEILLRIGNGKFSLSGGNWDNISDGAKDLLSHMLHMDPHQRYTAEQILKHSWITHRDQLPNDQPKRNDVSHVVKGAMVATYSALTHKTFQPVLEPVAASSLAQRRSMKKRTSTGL
UniProt Q00535, sequence (whole entry, looked up): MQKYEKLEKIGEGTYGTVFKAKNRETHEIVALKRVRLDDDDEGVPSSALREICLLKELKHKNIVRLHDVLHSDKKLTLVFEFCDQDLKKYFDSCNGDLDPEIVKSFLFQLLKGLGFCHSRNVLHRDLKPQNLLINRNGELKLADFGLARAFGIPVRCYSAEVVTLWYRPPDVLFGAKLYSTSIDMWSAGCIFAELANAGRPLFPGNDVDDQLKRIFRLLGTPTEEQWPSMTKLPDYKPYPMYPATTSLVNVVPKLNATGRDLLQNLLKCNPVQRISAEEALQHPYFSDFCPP

Series 1
SMILES: CC(C)(C)c1cnc(CSc2cnc(NC(=O)C3CCN(C(=O)COCCOCCSc4cccc5c4C(=O)N(C4CCC(=O)NC4=O)C5=O)CC3)s2)o1 (stereo not drawn)
Cell line: HH
Method: CCK-8
It gave 13.8% and 12.6% for viability (500 nM).
The viability was 5.67% and 6.59% (1000 nM).
1 nM — viability: 99.2% and 100%.
It gave 94.6% and 95.6% for viability (50 nM).

Series 2
Target: Diamine acetyltransferase 1 (Homo sapiens, UniProt P21673)
Action: inhibitor
Concentration: 10 µM
Baseline: control
Construct (P21673 1-171): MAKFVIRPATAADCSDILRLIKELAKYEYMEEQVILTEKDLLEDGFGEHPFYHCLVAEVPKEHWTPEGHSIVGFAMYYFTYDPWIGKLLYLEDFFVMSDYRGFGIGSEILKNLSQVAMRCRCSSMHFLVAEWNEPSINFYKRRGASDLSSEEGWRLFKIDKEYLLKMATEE
The remaining activity of `CC(CC(=O)C[C@@H](C)[C@H]1CC(=O)[C@@]2(C)C3=C(C(=O)[C@@H](O)[C@]12C)[C@@]1(C)CC[C@H](O)C(C)(C)[C@@H]1C[C@@H]3O)C(=O)O` (stereo partly drawn) is reported as 91.8%.
`O=C(O)/C=C/c1ccccc1` has a remaining activity of 84.2%.
`COc1cc2oc(=O)ccc2cc1O` has a remaining activity of 104%.

Series 3
SMILES: NC(N)=NC(=O)c1nc(Cl)c(N2CCCCCC2)nc1N
Observed: β-arrestin recruitment
Action: agonist
Method: PRESTO-Tango
Concentration: 10 µM
Baseline: untreated
For S1PR5 (Homo sapiens, UniProt Q9H228): “fold over basal” read 1.06.
The “fold over basal” was 1.04 (Mas-related G-protein coupled receptor member F (MRGPRF, Homo sapiens, UniProt Q96AM1)).
The “fold over basal” was 1.32 (ADRA2C (Homo sapiens, UniProt P18825)).
It gave 0.82 for “fold over basal” (PTGIR (Homo sapiens, UniProt P43119)).

Series 4
Host: mouse
Sample: microsomes or S9
Concentration: 2 µM
Time: 0.5 h
For `COc1ccc(C)cc1NC(=O)c1cc2ccc3cccnc3c2[nH]1`, the remaining compound was 0.0592%.
`O=C1CC(c2ccccc2)=NN1c1nc(-c2ccc(Cl)cc2)cs1` gave a remaining compound of 96.5%.
The remaining compound of `CC1Cc2ccccc2N1S(=O)(=O)c1ccc2c(c1)c(=O)n(CC(=O)N1CCCC1)c(=O)n2C` (stereo not drawn) is reported as 13.2%.
The remaining compound of `O=S(=O)(c1cccc2cccnc12)n1ncc2c(Cl)ncnc21` is reported as 78.2%.

Series 5
SMILES: c1ccc(N2CCN(Cc3nc4ccccc4[nH]3)CC2)nc1
Method: competition with immobilised ligand
Concentration: 1 µM
Ribosomal protein S6 kinase alpha-6, C-terminal kinase domain (RPS6KA6, Homo sapiens, UniProt Q9UK32); binding — remaining binding: 100%.
EPHA5 (Homo sapiens, UniProt P54756); cell-free assay — remaining binding: 100%.
FGFR2 (Homo sapiens, UniProt P21802); cell-free assay — remaining binding: 96%.
CAMKK1 (Homo sapiens, UniProt Q8N5S9); binding — remaining binding: 98%.
The remaining binding was 95% (KIT (Homo sapiens, UniProt P10721, T670I/V559D); binding).
EGFR (Homo sapiens, UniProt P00533, G719S); cell-free assay — remaining binding: 91%.
The remaining binding was 79% (PIK3CA (Homo sapiens, UniProt P42336, H1047Y); cell-free assay).
CAMKK2 (Homo sapiens, UniProt Q96RR4); binding — remaining binding: 91%.
MAP3K12 (Homo sapiens, UniProt Q12852); binding — remaining binding: 97%.
PIP5K1C (Homo sapiens, UniProt O60331); binding — remaining binding: 93%.
EGFR (Homo sapiens, UniProt P00533, del752-759); cell-free assay — remaining binding: 90%.
For CSNK1A1 (Homo sapiens, UniProt P48729); cell-free assay: remaining binding read 93%.
It gave 100% for remaining binding (CDK5 (Homo sapiens, UniProt Q00535); binding).
Ribosomal protein S6 kinase alpha-1, N-terminal kinase domain (RPS6KA1, Homo sapiens, UniProt Q15418); binding — remaining binding: 100%.
The remaining binding was 100% (MAPK13 (Homo sapiens, UniProt O15264); binding).
TAOK1 (Homo sapiens, UniProt Q7L7X3); binding — remaining binding: 100%.
The remaining binding was 93% (FGFR4 (Homo sapiens, UniProt P22455); cell-free assay).

Series 6
Method: logD(dd/w) and ALogP
Notes: JT method
`CC(C)C[C@@H]1NC(=O)[C@@H](C)NC(=O)[C@H](CCC(=O)N2CCCC2)NC(=O)[C@@H](C(C)C)NC(=O)[C@H](C)NC(=O)[C@H](CC(C)C)NC(=O)[C@@H](CC(C)C)NC1=O`: “lipophilic permeability efficiency” 1.49.
`CC(C)C[C@@H]1NC(=O)[C@H](C)NC(=O)[C@H](CC(C)C)NC(=O)[C@@H](CC(C)C)NC(=O)[C@H](CC(C)C)NC(=O)[C@@H](C)NC(=O)[C@H](CCC(=O)N2CCCC2)NC1=O` — result for “lipophilic permeability efficiency”: 1.69.
Under “lipophilic permeability efficiency”, `CC(C)C[C@@H]1NC(=O)[C@H](CCC(=O)N2CCCC2)NC(=O)[C@H](CCC(=O)N2CCCC2)NC(=O)[C@@H](CCC(=O)N2CCCC2)NC(=O)[C@H](CC(C)C)NC(=O)[C@@H](CC(C)C)NC(=O)[C@H](CC(C)C)NC1=O` is recorded as 1.79.
`CC(C)C[C@@H]1NC(=O)[C@H](Cc2cscn2)NC(=O)[C@@H](CC(C)C)NC(=O)[C@H](CC(C)C)NC(=O)[C@@H](Cc2cscn2)NC(=O)[C@H](CC(C)C)NC(=O)[C@@H](CC(C)C)NC1=O`: “lipophilic permeability efficiency” 1.69.

A few entries again (series 4):
For `COc1ccc(C)cc1NC(=O)c1cc2ccc3cccnc3c2[nH]1`, the remaining compound was 0.0592%.
The remaining compound of `O=S(=O)(c1cccc2cccnc12)n1ncc2c(Cl)ncnc21` is reported as 78.2%.
`O=C1CC(c2ccccc2)=NN1c1nc(-c2ccc(Cl)cc2)cs1` gave a remaining compound of 96.5%.
